Experimental data collected from several papers.
Protocols differ between the studies behind these lines. ± marks the error that the study gave.

CN[C@](C)(C[18F])C(=O)O  tissue uptake (SCID mouse DU-145 xenograft, brain; 120 min, post injection): 0.2 ± 0.04 %ID/g
O=C(c1ccc(F)cc1)C1CCN(C2Cc3c(cccc3OCC[18F])CC2O)CC1 (single isomer, unassigned; (-))  tissue uptake (Sprague-Dawley rat, male, lung; intravenous, dose not given, 60 min): 0.738 ± 0.087 %ID/g
COc1cc2ncnc(Oc3cccc(N[11C](=O)Nc4cc(C(C)(C)C(F)(F)F)on4)c3)c2cc1OC  tissue uptake (Balb/c nude mouse, female, A375 melanoma xenograft, lung; 6.6 MBq, 60 min): 5.16 ± 0.34 %ID/g
COc1cc2ccnc(Cc3ccc(O[11CH3])c(OC)c3)c2cc1OC  tissue uptake (Sprague-Dawley rats, muscle; intravenous, 0.5 h): 0.071 ± 0.009 %ID/g
N=C(N)NCc1ccc(C(=O)NCCCC[C@H](NC(=O)N[C@@H](CCC(=O)O)C(=O)O)C(=O)O)cc1[211At]  tissue uptake (SCID mouse, PC-3 xenografts, spleen; 1 h): 17.1 ± 3.71 %ID/g
O=C(O)CC[C@H](NC(=O)O[C@@H](CCCCNC(=O)c1ccc([18F])cc1)C(=O)O)C(=O)O  tissue uptake (mouse, PC-3 PIP/flu xenografts, liver; 60 min): 12.5 ± 3.01 %ID/g
N=C(N)NCc1ccc(C(=O)NCCCC[C@H](NC(=O)N[C@@H](CCC(=O)O)C(=O)O)C(=O)O)cc1[131I]  tissue uptake (SCID mouse, PC-3 xenografts, spleen; 21 h): 0.33 ± 0.07 %ID/g
CCNc1cc2[o+]c3cc(NCC)c(C)cc3c(-c3ccccc3C(=O)OCCOCC[18F])c2cc1C  tissue uptake (rat, lung; 120 min): 0.82 ± 0.19 %ID/g
N=C(N)NCc1ccc(C(=O)NCCCC[C@H](NC(=O)CCCCCCC(=O)NCCCC[C@H](NC(=O)N[C@@H](CCC(=O)O)C(=O)O)C(=O)O)C(=O)O)cc1[211At]  tissue uptake (SCID mouse, PC-3 xenografts, stomach; 2 h): 2.86 ± 0.67 %ID/g
C=Cc1cc(O)cc2nc(-c3ccc(O)c([76Br])c3)oc12  tissue uptake (female C57BL/6 mouse, uterus; 1 h, low dose): 0.26 ± 0.09 %ID/g

Repeated from above:
COc1cc2ccnc(Cc3ccc(O[11CH3])c(OC)c3)c2cc1OC  tissue uptake (Sprague-Dawley rats, muscle; intravenous, 0.5 h): 0.071 ± 0.009 %ID/g
